Measured values from different studies.
Each numbered part is a random draw from the data of one study; scales do not carry over between parts. Positions count from the first letter of the parent shown.

Series 1
Target: OGT, full length, His-tagged (human)
Technique: phage display, sequencing
Matrix: in vitro
Concentration: 1 µg OGT
Setting: single substitutions, 15-mer displayed peptide, unchanged parent 19.6
Reference: input library
Direction: higher = stronger binding
Starting sequence: peptide; TAPFYPPAYQIQVFK
`TAPFYPPVYQIQVFK [A8V]` gave a fold enrichment of 27.5 fold.
With `TAPFYPPAYQGQVFK [I11G]` the fold enrichment was 0.517 fold.
With `TAAFYPPAYQIQVFK [P3A]` the fold enrichment was 24.9 fold.
For `TAPFYPPAYQIQNFK [V13N]`, the fold enrichment was 1.57 fold.
The fold enrichment of `MAPFYPPAYQIQVFK [T1M]` is reported as 9.4 fold.
`TAPFYPVAYQIQVFK [P7V]` has a fold enrichment of 0.913 fold.
`DAPFYPPAYQIQVFK [T1D]` has a fold enrichment of 27.4 fold.
The fold enrichment of `TAPFYPPAYQIQVFA [K15A]` is reported as 4.79 fold.

Series 2
Target: CCNF, cyclin fold, Cln2 fusion (human)
Technique: yeast growth competition, sequencing
Matrix: yeast
Setting: strong parent motif
Reference: not given
Direction: higher = stronger binding
Starting sequence: viral docking peptide; TSVRRALFTGGSD
Under “normalised enrichment score”, `S2H` is recorded as 8.32.
`G11L`: “normalised enrichment score” 8.34.
`A6Y` — result for “normalised enrichment score”: 3.64.
`V3C` — result for “normalised enrichment score”: 7.85.
`G11P` — result for “normalised enrichment score”: 8.52.
`S12A`: “normalised enrichment score” 8.15.
Under “normalised enrichment score”, `G11I` is recorded as 8.28.
Under “normalised enrichment score”, `V3M` is recorded as 3.1.
`S12W` — result for “normalised enrichment score”: 8.72.
`R4E`: “normalised enrichment score” 1.64.
`R4H` — result for “normalised enrichment score”: 4.61.
`G11V`: “normalised enrichment score” 8.33.
`S12R`: “normalised enrichment score” 8.76.
`S2Q` — result for “normalised enrichment score”: 7.69.
`R4G` — result for “normalised enrichment score”: 2.29.
For `G11T`, “normalised enrichment score” read 8.5.
`R5C` — result for “normalised enrichment score”: 1.86.

Series 3
Target: Probable WRKY transcription factor 50, DNA-binding domain (WRKY50, Arabidopsis thaliana, UniProt Q8VWQ5, residues 99-173)
Technique: DNA-protein interaction ELISA
Molecule type: double-stranded DNA, one strand shown
Matrix: in vitro, bacterial lysate
Concentration: not given
Setting: whole dsDNA probe, crude lysate protein
Reference: highest signal in screen
Direction: higher = stronger binding
Residues (chain): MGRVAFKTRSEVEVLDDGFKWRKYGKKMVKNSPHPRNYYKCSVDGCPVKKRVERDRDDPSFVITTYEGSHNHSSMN
For `AAAAAAGCCCCTTGCGCCTCTCTACCAAAA`, the relative absorbance was 11.3 % of maximum.
The relative absorbance of `AAAAAACAGGCCGATTCCGATCCCGGAAAA` is reported as 18.1 % of maximum.
For `AAAAAAAGTTACCAGTACGCGTCGGGAAAA`, the relative absorbance was 15.7 % of maximum.
For `AAAAAAGTCATTATAACCCAAACTCTAAAA`, the relative absorbance was 42.7 % of maximum.
With `AAAAAAGCTTCGCGCCAGCGGGAAAA` the relative absorbance was 18.9 % of maximum.
`AAAAAAACTTTCTATTCTGGATAAGTAAAA` has a relative absorbance of 44.7 % of maximum.
`AAAAAACTGTGTCCCCGTCCCATCTCAAAA` gave a relative absorbance of 13.3 % of maximum.
With `AAAAAATTCGTATCTGTACCCTATGCAAAA` the relative absorbance was 36.2 % of maximum.

Series 4
Target: inorganic phosphate, free oxyanion
Technique: microfluidic competitive inhibition
Matrix: in vitro, cell-free expressed
Concentration: not given
Setting: derived from inhibition constants, unchanged parent 615000 nM
Direction: lower = stronger binding
Starting sequence: PafA, mature enzyme, eGFP fusion (Elizabethkingia meningoseptica, UniProt Q9KJX5); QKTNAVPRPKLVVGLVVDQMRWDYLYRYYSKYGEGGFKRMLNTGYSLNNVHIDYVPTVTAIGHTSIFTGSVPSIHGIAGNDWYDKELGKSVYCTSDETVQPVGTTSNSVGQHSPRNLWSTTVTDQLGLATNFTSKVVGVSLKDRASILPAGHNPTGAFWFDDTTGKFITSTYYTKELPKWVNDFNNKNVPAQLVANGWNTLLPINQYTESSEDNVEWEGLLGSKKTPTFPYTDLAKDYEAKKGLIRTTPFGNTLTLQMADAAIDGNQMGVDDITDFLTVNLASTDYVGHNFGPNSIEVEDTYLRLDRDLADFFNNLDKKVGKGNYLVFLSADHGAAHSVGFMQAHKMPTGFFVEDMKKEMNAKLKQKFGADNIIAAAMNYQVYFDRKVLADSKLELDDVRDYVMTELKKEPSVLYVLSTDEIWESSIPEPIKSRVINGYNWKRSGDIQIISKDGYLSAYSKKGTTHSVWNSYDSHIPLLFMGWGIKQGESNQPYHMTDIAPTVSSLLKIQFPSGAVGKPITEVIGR
`A336G`: “phosphate dissociation constant” 474 µM.
Under “phosphate dissociation constant”, `D272G` is recorded as 626 µM.
`T419G` — result for “phosphate dissociation constant”: 512 µM.
For `R21V`, “phosphate dissociation constant” read 348 µM.
`V287G`: “phosphate dissociation constant” 834 µM.
